Measured values gathered from unrelated publications.
Numbered parts are unrelated; each lists some results of a single study. Positions count from the first letter of the parent shown.
UniProt Q14012, sequence (whole entry, looked up): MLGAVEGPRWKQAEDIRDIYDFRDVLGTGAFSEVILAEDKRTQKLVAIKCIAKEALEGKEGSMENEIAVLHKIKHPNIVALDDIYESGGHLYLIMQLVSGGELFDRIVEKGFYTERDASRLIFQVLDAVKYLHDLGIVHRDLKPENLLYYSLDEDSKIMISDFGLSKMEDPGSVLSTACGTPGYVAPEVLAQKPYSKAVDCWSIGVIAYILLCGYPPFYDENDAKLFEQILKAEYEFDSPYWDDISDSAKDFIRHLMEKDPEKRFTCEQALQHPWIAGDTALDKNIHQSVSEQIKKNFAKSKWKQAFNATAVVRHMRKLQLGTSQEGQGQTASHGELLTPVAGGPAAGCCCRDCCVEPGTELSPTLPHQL
UniProt P31152, sequence (whole entry, looked up): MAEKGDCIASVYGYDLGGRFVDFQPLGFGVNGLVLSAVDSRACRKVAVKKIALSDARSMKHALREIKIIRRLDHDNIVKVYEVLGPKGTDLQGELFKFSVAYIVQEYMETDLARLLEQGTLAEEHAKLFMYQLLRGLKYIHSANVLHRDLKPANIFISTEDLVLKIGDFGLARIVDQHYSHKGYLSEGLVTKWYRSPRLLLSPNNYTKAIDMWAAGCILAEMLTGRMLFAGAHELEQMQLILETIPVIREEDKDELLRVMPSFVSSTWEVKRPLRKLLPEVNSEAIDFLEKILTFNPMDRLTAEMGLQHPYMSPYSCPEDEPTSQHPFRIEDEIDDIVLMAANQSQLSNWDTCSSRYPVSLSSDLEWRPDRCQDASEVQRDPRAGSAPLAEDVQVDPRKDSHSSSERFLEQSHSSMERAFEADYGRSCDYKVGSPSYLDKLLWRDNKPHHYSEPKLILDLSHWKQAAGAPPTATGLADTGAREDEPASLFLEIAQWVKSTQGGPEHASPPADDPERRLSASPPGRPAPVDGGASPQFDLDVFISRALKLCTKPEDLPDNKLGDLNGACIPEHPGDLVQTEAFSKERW
UniProt Q15418, sequence (whole entry, looked up): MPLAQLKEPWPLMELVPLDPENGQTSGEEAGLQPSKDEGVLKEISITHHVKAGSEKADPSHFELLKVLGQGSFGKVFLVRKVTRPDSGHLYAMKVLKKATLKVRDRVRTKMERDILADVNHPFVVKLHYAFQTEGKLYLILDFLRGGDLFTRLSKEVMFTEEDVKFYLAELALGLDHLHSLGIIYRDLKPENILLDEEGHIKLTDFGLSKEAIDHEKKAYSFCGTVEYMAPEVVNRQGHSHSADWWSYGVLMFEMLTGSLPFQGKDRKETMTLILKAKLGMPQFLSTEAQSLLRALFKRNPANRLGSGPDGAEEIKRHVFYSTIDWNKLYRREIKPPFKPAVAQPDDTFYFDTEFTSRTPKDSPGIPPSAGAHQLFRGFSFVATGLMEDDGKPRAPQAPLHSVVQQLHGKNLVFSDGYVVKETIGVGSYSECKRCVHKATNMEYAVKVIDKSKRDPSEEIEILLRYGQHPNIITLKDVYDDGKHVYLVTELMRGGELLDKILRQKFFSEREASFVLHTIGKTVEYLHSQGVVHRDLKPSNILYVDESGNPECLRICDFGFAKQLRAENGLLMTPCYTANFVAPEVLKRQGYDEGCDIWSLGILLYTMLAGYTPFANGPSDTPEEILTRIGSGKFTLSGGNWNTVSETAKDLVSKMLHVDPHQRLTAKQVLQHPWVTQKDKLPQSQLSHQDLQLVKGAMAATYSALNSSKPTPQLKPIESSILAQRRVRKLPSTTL
UniProt Q9BZL6, sequence (whole entry, looked up): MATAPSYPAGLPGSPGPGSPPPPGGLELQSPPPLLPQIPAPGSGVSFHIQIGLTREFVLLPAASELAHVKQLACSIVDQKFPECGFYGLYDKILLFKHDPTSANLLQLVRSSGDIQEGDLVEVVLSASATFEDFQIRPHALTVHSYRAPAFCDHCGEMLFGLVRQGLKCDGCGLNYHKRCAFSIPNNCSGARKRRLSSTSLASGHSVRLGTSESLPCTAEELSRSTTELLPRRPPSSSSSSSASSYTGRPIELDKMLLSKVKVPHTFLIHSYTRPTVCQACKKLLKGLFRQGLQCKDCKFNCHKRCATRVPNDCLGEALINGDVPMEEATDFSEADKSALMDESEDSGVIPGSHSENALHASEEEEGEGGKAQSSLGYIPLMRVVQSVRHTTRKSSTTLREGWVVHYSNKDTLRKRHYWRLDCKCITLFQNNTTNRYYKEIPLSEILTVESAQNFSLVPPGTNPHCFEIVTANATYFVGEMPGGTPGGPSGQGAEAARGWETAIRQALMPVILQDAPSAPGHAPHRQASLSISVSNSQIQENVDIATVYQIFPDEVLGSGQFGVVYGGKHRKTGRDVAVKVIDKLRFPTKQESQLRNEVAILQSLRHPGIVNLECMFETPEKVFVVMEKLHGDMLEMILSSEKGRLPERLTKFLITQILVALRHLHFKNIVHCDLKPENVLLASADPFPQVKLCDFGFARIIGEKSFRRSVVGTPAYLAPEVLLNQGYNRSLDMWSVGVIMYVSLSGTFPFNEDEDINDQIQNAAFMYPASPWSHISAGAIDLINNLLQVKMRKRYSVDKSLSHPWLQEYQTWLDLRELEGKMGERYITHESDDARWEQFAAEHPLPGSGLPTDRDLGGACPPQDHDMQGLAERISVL
UniProt Q7KZI7, sequence (whole entry, looked up): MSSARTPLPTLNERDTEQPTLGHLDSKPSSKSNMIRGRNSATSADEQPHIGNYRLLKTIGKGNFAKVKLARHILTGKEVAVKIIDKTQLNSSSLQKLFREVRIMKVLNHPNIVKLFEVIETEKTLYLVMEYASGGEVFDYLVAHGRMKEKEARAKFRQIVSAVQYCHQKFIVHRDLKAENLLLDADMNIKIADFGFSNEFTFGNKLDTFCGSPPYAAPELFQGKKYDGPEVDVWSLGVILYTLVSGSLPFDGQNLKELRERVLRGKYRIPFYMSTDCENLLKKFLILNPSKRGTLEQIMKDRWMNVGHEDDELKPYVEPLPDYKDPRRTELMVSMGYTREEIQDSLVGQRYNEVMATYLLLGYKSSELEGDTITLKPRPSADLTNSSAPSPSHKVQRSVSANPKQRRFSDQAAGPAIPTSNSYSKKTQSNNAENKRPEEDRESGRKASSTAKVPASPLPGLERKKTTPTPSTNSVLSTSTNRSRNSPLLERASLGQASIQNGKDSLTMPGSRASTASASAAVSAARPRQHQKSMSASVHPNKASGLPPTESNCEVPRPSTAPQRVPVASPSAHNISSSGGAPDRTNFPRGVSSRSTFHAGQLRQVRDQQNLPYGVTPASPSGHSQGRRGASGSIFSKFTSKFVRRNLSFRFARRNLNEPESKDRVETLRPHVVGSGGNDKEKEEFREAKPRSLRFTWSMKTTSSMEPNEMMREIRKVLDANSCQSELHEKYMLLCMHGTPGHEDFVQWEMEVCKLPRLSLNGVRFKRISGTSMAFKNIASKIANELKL
UniProt Q8NI60, sequence (whole entry, looked up): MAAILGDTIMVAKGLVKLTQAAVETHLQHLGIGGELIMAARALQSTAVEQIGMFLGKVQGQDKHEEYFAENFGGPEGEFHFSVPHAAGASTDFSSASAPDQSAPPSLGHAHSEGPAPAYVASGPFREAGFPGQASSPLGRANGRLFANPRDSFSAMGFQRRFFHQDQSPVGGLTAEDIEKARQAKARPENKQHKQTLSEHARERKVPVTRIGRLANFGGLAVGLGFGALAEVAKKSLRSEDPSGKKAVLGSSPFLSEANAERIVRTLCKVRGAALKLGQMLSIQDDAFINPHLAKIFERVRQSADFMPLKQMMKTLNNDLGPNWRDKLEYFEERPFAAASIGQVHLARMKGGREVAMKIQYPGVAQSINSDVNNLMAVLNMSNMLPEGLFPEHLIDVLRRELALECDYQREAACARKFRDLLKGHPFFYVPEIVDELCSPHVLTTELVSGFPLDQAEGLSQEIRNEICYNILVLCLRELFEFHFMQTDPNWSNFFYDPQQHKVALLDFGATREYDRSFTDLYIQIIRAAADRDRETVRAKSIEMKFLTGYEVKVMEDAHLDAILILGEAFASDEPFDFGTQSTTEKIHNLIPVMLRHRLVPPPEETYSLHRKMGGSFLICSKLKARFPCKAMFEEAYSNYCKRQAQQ

Block 1
Target: ABI1, truncated, D143A, DHFR fusion (Arabidopsis thaliana)
Technique: DHFR PCA, deep sequencing
Matrix: yeast
Setting: methotrexate growth selection, single substitutions
Added: (+)-ABA 58 µM
Baseline: wild-type fitted maximum
Reading: higher = stronger binding
Parent: PYL1, truncated, DHFR fusion (Arabidopsis thaliana); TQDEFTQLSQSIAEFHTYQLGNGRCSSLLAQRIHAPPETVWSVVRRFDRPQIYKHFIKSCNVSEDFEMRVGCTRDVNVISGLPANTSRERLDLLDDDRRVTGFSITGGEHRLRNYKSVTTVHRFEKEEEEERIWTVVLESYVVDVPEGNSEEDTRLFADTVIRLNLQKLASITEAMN; partner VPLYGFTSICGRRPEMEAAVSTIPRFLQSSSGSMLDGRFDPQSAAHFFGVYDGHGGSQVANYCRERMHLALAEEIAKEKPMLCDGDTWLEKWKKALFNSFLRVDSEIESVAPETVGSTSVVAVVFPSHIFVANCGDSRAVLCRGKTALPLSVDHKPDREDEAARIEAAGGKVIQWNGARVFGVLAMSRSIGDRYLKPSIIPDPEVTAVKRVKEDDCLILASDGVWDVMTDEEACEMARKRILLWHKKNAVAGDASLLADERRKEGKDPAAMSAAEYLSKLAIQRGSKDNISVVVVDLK
Under “relative binding score”, `D75F` is recorded as 88.4%.
`E125Q` — result for “relative binding score”: 95.8%.
For `E129R`, “relative binding score” read 88.1%.
For `E130D`, “relative binding score” read 95.5%.
`F157S` — result for “relative binding score”: 7.29%.
For `T160V`, “relative binding score” read 60.1%.
`S80F`: “relative binding score” 26.9%.
`F124L`: “relative binding score” 100%.

Block 2
Target: RING finger protein unkempt homolog, zinc fingers 1-6, GST-SBP tag (UNK, Homo sapiens, UniProt Q9C0B0, residues 30-357)
Technique: RNA Bind-n-Seq
Molecule type: RNA
Matrix: in vitro
Concentration: not given
Setting: RNA with constant flanks, human and mouse sites, ends assumed
Baseline: input RNA pool
Reading: higher = stronger binding
All sequences stand within: GGGAGUUCUACAGUCCGACGAUC … CAACAGAGGAUUGAGCAUCA
Residues (chain): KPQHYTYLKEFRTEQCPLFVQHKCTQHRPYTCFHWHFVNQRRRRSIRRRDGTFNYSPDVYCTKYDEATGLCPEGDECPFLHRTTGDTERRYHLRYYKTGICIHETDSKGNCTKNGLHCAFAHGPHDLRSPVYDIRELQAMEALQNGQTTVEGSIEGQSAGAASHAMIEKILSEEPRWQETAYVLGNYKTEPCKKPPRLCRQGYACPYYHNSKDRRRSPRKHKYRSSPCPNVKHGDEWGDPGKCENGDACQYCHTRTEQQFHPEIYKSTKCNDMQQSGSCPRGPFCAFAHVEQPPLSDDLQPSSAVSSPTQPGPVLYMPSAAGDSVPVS
With `GCUUGUGCAGCUUACAAUCUAUUUAACUAUUAGAGGCCCUGUGAGAUGUAGGCAGUUAUUUACAGAUGAGAAAACUAACACAGCAGUGGCAAUGCUGGGAAUGGCCAACAGGCUUGGAAU` the bound/input enrichment was 0.486 ratio.
The bound/input enrichment of `AUCCACAGUCUGAUGGGCAACUUUGAAAACGCUGUGGACUAUUUCCACACAGCUCUUGGUCUCAGGCGAGACGACACAUUUUCUGUUACAAUGCUUGGUCACUGCAUUGAAAUGUACAUC` is reported as 0.138 ratio.
`AGGCCUUGGUUUACCCCGAGAUCCAUCUAUAUGGAAGCAUCGACAGUGGACUGUAAUGAUUUAGGGCUUUUAAACUUCCCAGCCAGAUUGCCUGCCGACACACAGAUUCUGCUCCUACAG` has a bound/input enrichment of 0.222 ratio.
`GAUCAGAAGAGGAAAGAAAGAAAAGCUCAGAGGCAAGCAGCAAAGAAUCAAAUGUAUGAUGAUUACUACUAUUAUGGUCCACCUCAUAUGCCUCCCCCAACAAGAGGUCGAGGGCGUGGA` gave a bound/input enrichment of 0.397 ratio.
`AAUCAGGCAUUUGGAAUGAAUAACUCCUUAUCAAGUAACAUUUUUAAUGGAACAGAUGGCAGUGAAAAUGUGACAGGAUUGGACCUUUCAGAUUUCCCAGCGUUAGCUGACCGGAAUAGA` has a bound/input enrichment of 0.324 ratio.
`UGGUCCUCGGUUGCUCGUCAUGCAAGUGCUAUUUCCCGGAGUAUUUCUGCCUCAACAGUUCUUAGGCCUGUUGCUUCUAGAAGAACCUGUUUGACAGACAUACUGUGGUCUGCCUCUGCC` has a bound/input enrichment of 0.173 ratio.
`GAAAAGUUAGAAAAAAUGAUGGAGAAAAAAGGCACUAAAAUCCAGACUCCUGCAGCACCCAAGCAAGUUUUCCCAUUUCGAGACAUCUUUUAUUAUGAAGACGAUAGUGAAGGAGAGGAC` gave a bound/input enrichment of 0.839 ratio.
`UCCUUACAACAUGGUGACCUUGAGUACAGGCAAUGCUACCAAUUCCUCCACAAGCCCACCAUUGAAAACAUGCACCGCUUUAAUGCUGUGCAUAGACAACGAAGCUUUGGUCAACAGAAC` has a bound/input enrichment of 0.0891 ratio.

Block 3
Structure (SMILES): C[C@@H]1CN(c2cc(-c3n[nH]c4ccc(OC5(C)CC5)cc34)ncn2)C[C@H](C)O1
Read-out: cell-free assay
Technique: competition with immobilised ligand
Concentration: 0.1 µM
It gave 50% for remaining binding (EGFR (Homo sapiens, UniProt P00533, L861Q)).
The remaining binding was 91% (MYLK2 (Homo sapiens, UniProt Q9H1R3)).
PRKD2 (Homo sapiens, UniProt Q9BZL6) — remaining binding: 100%.
For FGR (Homo sapiens, UniProt P09769): remaining binding read 89%.
MAPK4 (Homo sapiens, UniProt P31152) — remaining binding: 83%.
For MAP3K2 (Homo sapiens, UniProt Q9Y2U5): remaining binding read 73%.
The remaining binding was 85% (COQ8A (Homo sapiens, UniProt Q8NI60)).
MARK2 (Homo sapiens, UniProt Q7KZI7) — remaining binding: 100%.
For CDK11A (Homo sapiens, UniProt Q9UQ88): remaining binding read 93%.
MAST1 (Homo sapiens, UniProt Q9Y2H9) — remaining binding: 70%.
For CAMK1 (Homo sapiens, UniProt Q14012): remaining binding read 100%.
Ribosomal protein S6 kinase alpha-1, C-terminal kinase domain (RPS6KA1, Homo sapiens, UniProt Q15418) — remaining binding: 93%.

Block 4
Target: Protein kinase C beta type, isoform beta-I (PRKCB, Homo sapiens, UniProt P05771)
UniProt P05771, sequence (whole entry, looked up): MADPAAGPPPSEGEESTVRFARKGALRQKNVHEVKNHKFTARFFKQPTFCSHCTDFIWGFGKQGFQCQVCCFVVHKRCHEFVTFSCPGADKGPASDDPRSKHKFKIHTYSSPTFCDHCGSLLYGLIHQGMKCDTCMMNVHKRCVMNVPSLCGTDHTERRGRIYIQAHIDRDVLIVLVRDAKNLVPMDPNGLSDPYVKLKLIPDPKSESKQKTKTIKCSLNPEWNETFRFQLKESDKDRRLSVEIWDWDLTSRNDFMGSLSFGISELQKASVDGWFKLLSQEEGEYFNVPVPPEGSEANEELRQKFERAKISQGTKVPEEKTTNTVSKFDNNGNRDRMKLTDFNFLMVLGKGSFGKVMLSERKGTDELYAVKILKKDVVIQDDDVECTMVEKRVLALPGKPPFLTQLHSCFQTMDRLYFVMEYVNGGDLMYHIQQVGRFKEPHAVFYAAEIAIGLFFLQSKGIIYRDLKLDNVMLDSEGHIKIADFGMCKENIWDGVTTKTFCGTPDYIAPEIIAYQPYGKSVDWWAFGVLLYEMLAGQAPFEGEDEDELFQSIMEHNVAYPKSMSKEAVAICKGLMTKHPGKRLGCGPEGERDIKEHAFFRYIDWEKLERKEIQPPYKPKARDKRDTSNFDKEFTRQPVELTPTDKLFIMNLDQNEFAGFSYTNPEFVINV
Read-out: enzyme activity
Mode: inhibitor
Concentration: 0.5 µM
Baseline: control
`O=C(CCCc1ccc(-c2ccccc2F)cc1)Nc1ccc(O)cc1` gave a remaining activity of 93.4%.
The remaining activity of `Cc1ccc(NC(=O)c2ccc(CN3CCN(C)CC3)cc2)cc1Nc1nc(-c2cccnc2)cs1` is reported as 101%.
With `Cn1sc(=O)n(Cc2ccccc2)c1=O` the remaining activity was 110%.
`O=C(O)c1ccc2c3c1cccc3c(=O)n1c3ccccc3nc21` gave a remaining activity of 89.8%.
`Nc1[nH]nc2nc3ccccc3nc12` has a remaining activity of 103%.
`Oc1ccc(-c2nc(-c3ccncc3)c(-c3ccc(F)cc3)[nH]2)cc1` has a remaining activity of 63.7%.

Some of these lines once more (block 1):
`F157S` — result for “relative binding score”: 7.29%.
For `T160V`, “relative binding score” read 60.1%.
